Experimental data from different studies.
A part holds a random share of what one study measured. Positions count from the first letter of the parent shown.

Sample 1
Target: Histone acetyltransferase KAT6A, winged helix 2, GST fusion (KAT6A, Homo sapiens, UniProt Q92794, residues 85-181)
Method: protein binding microarray
Form: double-stranded DNA, one strand shown
Medium: in vitro
Concentration: not given
Setting: 8-mer, flanks averaged, mean of 2 arrays, mostly near background
Reference: not given
Reading: higher = stronger binding
Quantity: E-score
Target sequence (chain): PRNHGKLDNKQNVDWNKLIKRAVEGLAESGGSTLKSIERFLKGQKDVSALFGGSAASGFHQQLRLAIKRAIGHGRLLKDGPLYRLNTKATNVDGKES
CAGGTATC: -0.0753
ATCTGCTA: -0.024
GCTCGGTA: 0.000405
CCTAGGCA: -0.107
CGAGAAAA: 0.0613
AAACAACC: 0.14
CACTACAG: 0.00427
CAACCATC: 0.0359
GTCACAAA: 0.104
TGCGCGAA: 0.282
CTAAAAAC: 0.0327
CCGATGCG: 0.178
CCATGAAC: 0.0901
GTACAAAC: 0.00464
ATTTGCAG: 0.00387
ACATCGCT: -0.0477

Sample 2
Target: ABI1, truncated, D143A, DHFR fusion (Arabidopsis thaliana)
Method: DHFR PCA, deep sequencing
Medium: yeast
Setting: methotrexate growth selection, single substitutions
Together with: (+)-ABA 17 µM
Reference: wild-type fitted maximum
Reading: higher = stronger binding
Quantity: relative binding score
Starting sequence: PYL1, truncated, DHFR fusion (Arabidopsis thaliana); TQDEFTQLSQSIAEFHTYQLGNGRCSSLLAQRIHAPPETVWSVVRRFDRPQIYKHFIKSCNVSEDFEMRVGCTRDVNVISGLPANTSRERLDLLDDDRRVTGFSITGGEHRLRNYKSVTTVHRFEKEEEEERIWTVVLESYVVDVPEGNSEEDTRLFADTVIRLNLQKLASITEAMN
V137R: -9.78%
T1A: 85.6%
P146H: 0.137%
R74T: -12.9%
H110S: 18.4%
D65M: 62.1%
F66P: 46.5%
T120S: 104%
A158D: -10.5%
E131V: 86.5%
N61D: 83.5%
L28W: 45.6%
L94C: 43.8%
T86H: 81.2%
N77L: 78.7%
I172T: 65%
E125R: 85.5%

Sample 3
Target: RNA binding protein fox-1 homolog 2, RRM domain, GST-SBP tag (RBFOX2, Homo sapiens, UniProt O43251-10, residues 100-194)
Method: RNA Bind-n-Seq
Form: RNA
Medium: in vitro
Concentration: 365 nM
Setting: natural RNA segment, single round, ends assumed
Reference: no-protein control
Reading: higher = stronger binding
Quantity: RBNS enrichment (R)
Construct (chain): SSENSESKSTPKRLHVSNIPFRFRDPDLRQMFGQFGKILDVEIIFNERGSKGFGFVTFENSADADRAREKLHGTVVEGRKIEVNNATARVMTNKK
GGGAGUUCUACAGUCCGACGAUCGAGACUUCAGAUUGGAAUACCUUGGGAUCUCCUCACCCCACUUUACAGAACUGCCCAAUCCAGGGGCUCUGGGAUAUGGCUGCCCGGGAUUACAGAAAGACACGGCACUGUGGAAUUCUCGGGUGCCAA: 0.7
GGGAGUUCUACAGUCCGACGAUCUUUAAUAAAUGUUAUAAUACCAACCUACUAACUCUGGACUAUGUUUGUUUAUUAACCUUUCCGUGUUUAAUGAAAACAAACAGGGAUAAAUAAAGUCUUGAGUUCCUGGAUGGAAUUCUCGGGUGCCAA: 0.758
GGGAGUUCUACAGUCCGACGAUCCUUUGCCUGUAUUUAUCAAAGAAAAAGACCAAAAGAUGAUGGUAAAACCUCUGUUUCUAUAGAUUUAUUUUUAUACAUGUUUAAUUAUUGAAUCAUAAAAUGGGGACAUAUGGAAUUCUCGGGUGCCAA: 0.54
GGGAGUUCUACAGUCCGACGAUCCUCUUUUUCAGUUUUAUCUGUCAAUAGUAGCUACAUUUUUAAUGGGAGCACCUUUUAUCCCAAAGUGCUUUAUAAAUUGAGUGGACUGAUAUAUAUCACACCCAGGUAUCUGGAAUUCUCGGGUGCCAA: 0.274
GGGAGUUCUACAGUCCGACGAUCGGCCUAGAUGUCGUGUUUUGGAUGCUGUGUUUUCAAUAAAUGCCUCUGGGGCCCUGCUUUUACCCGCUGGCGUCAGGUGCCGCGUCUUUCUUCUUUUUUCUUUCUUUCAGUGGAAUUCUCGGGUGCCAA: 0.504
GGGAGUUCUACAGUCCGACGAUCAGUCACUCUCCCUCUCUGGGCAUGUCUGCUACAAAUGGACAAGAUUAUUUCAGAGGUCACUGAAGACUGUGAUUACAUGCACCUGCCUUAGAAGGUAGGAUUUUCUUCCCUGGAAUUCUCGGGUGCCAA: 0.378
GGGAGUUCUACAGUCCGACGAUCCCAGCAGAGAUGCUAGUGGGGCUUCCGCUGUGUCAUCAGACCUCCAGAGCACCUGAUUGGCCCAAAAGACCAGCAAGACCCUUGUCUACUCUGCAGAUGGUGAAGCCUUUUGGAAUUCUCGGGUGCCAA: 0.362
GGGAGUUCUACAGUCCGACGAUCACAGCCUGGCAGCCUGGCCCUCCUGGUGCCCACUCCCGCCAGCCCCUGCCUCGAGGACUGAUACUGCAGUGACUGCCGUCAGCUCCGACUGCCGCUGAGAAGGGUUGAUCUGGAAUUCUCGGGUGCCAA: 0.7
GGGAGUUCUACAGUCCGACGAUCCGUCCCAAGAUGUUGAUUUUUACUGUGUUUUAUAAAAUAGAGUGUAGUUUACAGAAAAAGACUUUAAAAGUGAUCUACAUGAGGAACUGUAGAUGAUGUAUUUUUUUCAUUGGAAUUCUCGGGUGCCAA: 0.652
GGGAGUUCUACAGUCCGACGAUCCGGCCUCCACAGUUAGAUGUUUAUGGUGCCAGAGGUCUAUAUUAAGGUAGCUGUCUGUUGCUAGGCAGCCGUUUGCACAAAUCUUGGACAUAAAUCCAACUUGAAGAUCAUGGAAUUCUCGGGUGCCAA: 0.54
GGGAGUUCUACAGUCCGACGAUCCGUAGUUUUCGCAUCCUUGAAUUAAACUGCCUUAACUCCUUUUGUGGUAUAAGCAAAACUACAUGGACUCUGUCCUGGUAUCCUUUUCCUGUGUGGUUGCCCCGUGUCCUUGGAAUUCUCGGGUGCCAA: 0.581
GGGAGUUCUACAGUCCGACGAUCCCUGUAAGCAGGAAAAAUACGUCAAAUCAGAUAGAAUAGAGCAUUUACCAGUGGUCGAUGGCCUGGUCAGUCCUGUGCCGGGUGACUUAGGACCAGGCACGUCAGCUCUCUGGAAUUCUCGGGUGCCAA: 0.442

Sample 4
Target: Ras GTPase-activating protein-binding protein 1, full length (G3BP1, Homo sapiens, UniProt Q13283)
Chain of UniProt Q13283 (whole entry, looked up): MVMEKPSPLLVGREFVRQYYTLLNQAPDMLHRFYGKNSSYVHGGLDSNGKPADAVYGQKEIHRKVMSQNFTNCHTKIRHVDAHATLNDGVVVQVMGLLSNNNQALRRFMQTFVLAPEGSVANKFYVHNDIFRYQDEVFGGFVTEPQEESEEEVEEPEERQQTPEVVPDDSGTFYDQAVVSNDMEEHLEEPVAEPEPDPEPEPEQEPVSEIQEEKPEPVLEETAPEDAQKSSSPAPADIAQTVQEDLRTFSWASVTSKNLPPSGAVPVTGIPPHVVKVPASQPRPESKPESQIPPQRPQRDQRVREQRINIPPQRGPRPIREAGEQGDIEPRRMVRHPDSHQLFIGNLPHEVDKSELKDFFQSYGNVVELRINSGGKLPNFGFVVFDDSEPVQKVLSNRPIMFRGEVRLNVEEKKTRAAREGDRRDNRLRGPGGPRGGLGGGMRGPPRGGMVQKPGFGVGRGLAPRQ
Method: RNA Bind-n-Seq
Form: RNA
Medium: in vitro
Concentration: 200 nM
Setting: whole 134-nt RNA, ends assumed
Together with: 150 mM KCl
Reference: input library
Reading: higher = stronger binding
Quantity: log2 enrichment
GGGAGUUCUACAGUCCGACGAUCCCUCAAGUCCUGUGCUACACAUCGUAUGUACCGAAUCGGUUGGUUGGGUUGGAAAGUAUUAUGUUACGCCGUUCGGAUCUGCACUUCCAGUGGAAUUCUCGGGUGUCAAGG: -0.277
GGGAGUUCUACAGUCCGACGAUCCACAGACAACACGCACCCACACAGACACAGAGGGAAGGGGUUGGGAUGGGGACAGGGUGCACAGAAAGGCGGGGUAGGACCCCAGCCCCUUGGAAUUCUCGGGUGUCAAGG: 1.62
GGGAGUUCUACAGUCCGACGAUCCACAGACAACACGCACCCACACAGACACAGAGGGAAGGGGUUGGUAUGGGGACAGGGUGCACAGCAGGGCGGGGUAGGACCCCAGCCCCUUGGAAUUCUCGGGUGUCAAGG: 1.87
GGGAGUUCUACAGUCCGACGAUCGUCCUGUGCUACACAUCGUAUGUACCGAAUCGGGAAAAAAAGGGAAAAAAAGGGUGGGAAAGUAUUAUGUUACGCCGUUCGGAUCUGCACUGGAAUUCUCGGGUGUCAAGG: -0.072
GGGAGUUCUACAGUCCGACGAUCCCUCAAGUCCUGUGCUACACAUCGUAUGUACCGAAUCGGAAGGAAGGGGAAGGAAAGUAUUAUGUUACGCCGUUCGGAUCUGCACUUCCAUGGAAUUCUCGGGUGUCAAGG: -0.368
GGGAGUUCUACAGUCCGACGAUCCCUGUGCUACACAUCGUAUGUACCGAAUCGGAAAAAAAGGGGAAAAAAAGGGAAAAAAAGGAAAGUAUUAUGUUACGCCGUUCGGAUCUGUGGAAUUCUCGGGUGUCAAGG: -0.929
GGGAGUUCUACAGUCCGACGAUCUGGCCCUGGUGGCAUGCGGGGAGGAAGAGGUGGCCUCAUGGAUCGUGGUGGUCCCGGUGGAAUGUUCAGGGGUGGCCGUGGUGGAGACAGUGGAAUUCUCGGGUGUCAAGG: 0.311
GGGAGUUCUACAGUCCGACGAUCUGGCCCUGGUGGCAUGCGGGGAGGAAGAGGUGGCCUCAUGGAUCGUGGUGGUCCCGGUGGAAUGAUCAGAGGUGGCCGUGGUGGAGACAGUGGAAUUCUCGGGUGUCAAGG: 0.353
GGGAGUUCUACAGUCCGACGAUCACCAUGCAGGUGGGCAUCUUUGGGAAGUGGGGCAAGGGGGGGAAAAGGAGGGGGGUAACACUUUGGGAACAGGUGGUCCCAGGUCGUUUCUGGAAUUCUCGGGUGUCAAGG: 0.964
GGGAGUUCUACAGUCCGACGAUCUCAAGUCCUGUGCUACACAUCGUAUGUACCGAAUCGGGGCCGGGCCGGCCGGGGAAAGUAUUAUGUUACGCCGUUCGGAUCUGCACUUCCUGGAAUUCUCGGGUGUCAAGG: -0.254

For quick reference, copied from above (sample 3):
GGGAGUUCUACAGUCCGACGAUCAGUCACUCUCCCUCUCUGGGCAUGUCUGCUACAAAUGGACAAGAUUAUUUCAGAGGUCACUGAAGACUGUGAUUACAUGCACCUGCCUUAGAAGGUAGGAUUUUCUUCCCUGGAAUUCUCGGGUGCCAA: 0.378
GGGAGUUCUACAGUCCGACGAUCCCAGCAGAGAUGCUAGUGGGGCUUCCGCUGUGUCAUCAGACCUCCAGAGCACCUGAUUGGCCCAAAAGACCAGCAAGACCCUUGUCUACUCUGCAGAUGGUGAAGCCUUUUGGAAUUCUCGGGUGCCAA: 0.362
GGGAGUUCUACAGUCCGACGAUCACAGCCUGGCAGCCUGGCCCUCCUGGUGCCCACUCCCGCCAGCCCCUGCCUCGAGGACUGAUACUGCAGUGACUGCCGUCAGCUCCGACUGCCGCUGAGAAGGGUUGAUCUGGAAUUCUCGGGUGCCAA: 0.7
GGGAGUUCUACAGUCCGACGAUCCGUCCCAAGAUGUUGAUUUUUACUGUGUUUUAUAAAAUAGAGUGUAGUUUACAGAAAAAGACUUUAAAAGUGAUCUACAUGAGGAACUGUAGAUGAUGUAUUUUUUUCAUUGGAAUUCUCGGGUGCCAA: 0.652
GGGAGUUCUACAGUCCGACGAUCCGGCCUCCACAGUUAGAUGUUUAUGGUGCCAGAGGUCUAUAUUAAGGUAGCUGUCUGUUGCUAGGCAGCCGUUUGCACAAAUCUUGGACAUAAAUCCAACUUGAAGAUCAUGGAAUUCUCGGGUGCCAA: 0.54
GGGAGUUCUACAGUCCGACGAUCCGUAGUUUUCGCAUCCUUGAAUUAAACUGCCUUAACUCCUUUUGUGGUAUAAGCAAAACUACAUGGACUCUGUCCUGGUAUCCUUUUCCUGUGUGGUUGCCCCGUGUCCUUGGAAUUCUCGGGUGCCAA: 0.581
